Measured values collected from several papers.
Lines come from different studies, so protocols differ. “And” joins repeats or separate records; there may be more than shown. ± marks the error that the study gave.
FGFR1: Fibroblast growth factor receptor 1 (FGFR1, Homo sapiens, UniProt P11362)
Chain of UniProt P11362 (whole entry, looked up): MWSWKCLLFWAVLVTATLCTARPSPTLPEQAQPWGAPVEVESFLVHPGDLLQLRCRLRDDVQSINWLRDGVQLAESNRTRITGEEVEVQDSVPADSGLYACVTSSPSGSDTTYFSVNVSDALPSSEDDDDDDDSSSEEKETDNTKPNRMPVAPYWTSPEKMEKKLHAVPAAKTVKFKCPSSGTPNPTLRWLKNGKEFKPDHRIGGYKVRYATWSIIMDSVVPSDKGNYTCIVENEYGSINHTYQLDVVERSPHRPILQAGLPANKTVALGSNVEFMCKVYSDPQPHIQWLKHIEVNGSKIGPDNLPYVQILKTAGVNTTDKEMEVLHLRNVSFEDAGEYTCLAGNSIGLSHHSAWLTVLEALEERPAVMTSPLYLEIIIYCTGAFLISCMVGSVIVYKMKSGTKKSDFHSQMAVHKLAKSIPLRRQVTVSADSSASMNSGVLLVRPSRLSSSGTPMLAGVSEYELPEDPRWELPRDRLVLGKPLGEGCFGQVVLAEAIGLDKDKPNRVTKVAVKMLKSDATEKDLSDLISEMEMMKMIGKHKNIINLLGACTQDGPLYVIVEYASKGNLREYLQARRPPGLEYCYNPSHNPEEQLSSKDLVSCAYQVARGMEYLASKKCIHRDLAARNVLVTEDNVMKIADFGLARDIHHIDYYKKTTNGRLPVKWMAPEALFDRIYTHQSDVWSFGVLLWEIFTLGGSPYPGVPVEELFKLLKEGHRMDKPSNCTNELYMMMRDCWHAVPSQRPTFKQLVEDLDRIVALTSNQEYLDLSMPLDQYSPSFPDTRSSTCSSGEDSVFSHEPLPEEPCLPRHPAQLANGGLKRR
BEST2: Bestrophin-2a (BEST2, Homo sapiens, UniProt Q8NFU1)
Chain of UniProt Q8NFU1 (whole entry, looked up): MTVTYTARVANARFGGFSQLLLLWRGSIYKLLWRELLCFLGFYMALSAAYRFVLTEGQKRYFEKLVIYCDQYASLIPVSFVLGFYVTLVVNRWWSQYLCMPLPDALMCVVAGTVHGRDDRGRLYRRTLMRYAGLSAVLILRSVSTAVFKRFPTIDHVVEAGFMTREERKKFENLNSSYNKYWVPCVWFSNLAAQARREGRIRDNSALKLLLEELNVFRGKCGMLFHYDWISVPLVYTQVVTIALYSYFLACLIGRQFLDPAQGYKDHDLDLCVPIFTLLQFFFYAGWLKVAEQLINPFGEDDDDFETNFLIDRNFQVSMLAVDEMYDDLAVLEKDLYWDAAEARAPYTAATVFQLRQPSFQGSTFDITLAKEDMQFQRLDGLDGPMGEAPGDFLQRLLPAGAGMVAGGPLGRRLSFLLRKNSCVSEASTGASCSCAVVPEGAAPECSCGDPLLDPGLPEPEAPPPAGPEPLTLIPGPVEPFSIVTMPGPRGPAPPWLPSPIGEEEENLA
TOP2A: DNA topoisomerase 2-alpha (TOP2A, Homo sapiens, UniProt P11388)
Chain of UniProt P11388 (whole entry, looked up): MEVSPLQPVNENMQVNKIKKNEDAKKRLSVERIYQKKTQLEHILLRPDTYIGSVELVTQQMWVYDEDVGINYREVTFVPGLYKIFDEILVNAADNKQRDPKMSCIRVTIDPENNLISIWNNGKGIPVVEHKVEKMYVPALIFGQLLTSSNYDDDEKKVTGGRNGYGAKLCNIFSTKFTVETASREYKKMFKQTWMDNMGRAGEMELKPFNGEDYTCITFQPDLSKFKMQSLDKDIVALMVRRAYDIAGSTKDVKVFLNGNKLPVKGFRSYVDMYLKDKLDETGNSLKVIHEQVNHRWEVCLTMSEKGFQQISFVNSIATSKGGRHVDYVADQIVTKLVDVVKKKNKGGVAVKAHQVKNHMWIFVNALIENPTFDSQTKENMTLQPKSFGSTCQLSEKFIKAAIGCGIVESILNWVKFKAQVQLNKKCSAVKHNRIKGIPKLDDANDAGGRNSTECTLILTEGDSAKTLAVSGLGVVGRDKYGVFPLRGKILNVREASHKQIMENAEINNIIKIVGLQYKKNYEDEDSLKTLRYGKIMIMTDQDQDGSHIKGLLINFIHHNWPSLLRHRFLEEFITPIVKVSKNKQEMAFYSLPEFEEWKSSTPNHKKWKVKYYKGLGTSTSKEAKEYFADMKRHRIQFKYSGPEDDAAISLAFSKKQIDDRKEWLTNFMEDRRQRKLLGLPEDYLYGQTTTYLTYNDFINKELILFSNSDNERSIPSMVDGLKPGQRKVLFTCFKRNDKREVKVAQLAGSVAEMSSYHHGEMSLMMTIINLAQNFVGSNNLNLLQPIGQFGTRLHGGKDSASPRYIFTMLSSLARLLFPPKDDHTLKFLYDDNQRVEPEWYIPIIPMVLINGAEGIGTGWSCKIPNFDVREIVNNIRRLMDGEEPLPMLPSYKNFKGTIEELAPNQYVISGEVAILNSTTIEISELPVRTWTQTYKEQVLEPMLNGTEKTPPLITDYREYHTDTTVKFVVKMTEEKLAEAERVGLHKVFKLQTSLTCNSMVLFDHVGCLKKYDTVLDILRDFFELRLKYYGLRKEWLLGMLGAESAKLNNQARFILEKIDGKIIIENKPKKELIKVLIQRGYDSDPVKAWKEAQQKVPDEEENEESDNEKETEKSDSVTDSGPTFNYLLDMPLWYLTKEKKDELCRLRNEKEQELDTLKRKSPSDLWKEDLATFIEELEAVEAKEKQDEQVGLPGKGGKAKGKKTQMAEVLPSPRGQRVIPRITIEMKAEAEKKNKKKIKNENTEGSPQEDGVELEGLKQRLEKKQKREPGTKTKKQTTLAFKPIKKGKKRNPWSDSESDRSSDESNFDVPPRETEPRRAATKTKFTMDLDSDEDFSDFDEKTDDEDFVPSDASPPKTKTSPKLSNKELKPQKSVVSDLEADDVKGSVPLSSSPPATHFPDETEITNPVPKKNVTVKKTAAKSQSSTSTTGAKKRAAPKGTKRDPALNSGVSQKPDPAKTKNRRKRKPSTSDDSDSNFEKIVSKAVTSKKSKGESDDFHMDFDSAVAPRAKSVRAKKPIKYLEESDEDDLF
T1: G-quadruplex RNA (Homo sapiens); GAGGGAGGCGGAGGCUG
Chain of UniProt P07550 (whole entry, looked up): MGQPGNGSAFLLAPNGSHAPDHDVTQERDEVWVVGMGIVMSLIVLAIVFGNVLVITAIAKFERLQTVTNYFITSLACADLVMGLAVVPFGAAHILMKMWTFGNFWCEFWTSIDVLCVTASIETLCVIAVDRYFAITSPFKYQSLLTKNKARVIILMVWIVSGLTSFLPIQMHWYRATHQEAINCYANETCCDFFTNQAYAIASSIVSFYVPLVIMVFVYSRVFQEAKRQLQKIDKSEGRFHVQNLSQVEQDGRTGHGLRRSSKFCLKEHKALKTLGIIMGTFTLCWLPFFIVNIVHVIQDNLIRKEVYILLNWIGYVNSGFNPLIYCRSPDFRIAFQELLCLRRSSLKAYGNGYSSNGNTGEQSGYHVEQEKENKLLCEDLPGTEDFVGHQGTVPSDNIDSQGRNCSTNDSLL
Chain of UniProt Q16774 (whole entry, unmodified, looked up): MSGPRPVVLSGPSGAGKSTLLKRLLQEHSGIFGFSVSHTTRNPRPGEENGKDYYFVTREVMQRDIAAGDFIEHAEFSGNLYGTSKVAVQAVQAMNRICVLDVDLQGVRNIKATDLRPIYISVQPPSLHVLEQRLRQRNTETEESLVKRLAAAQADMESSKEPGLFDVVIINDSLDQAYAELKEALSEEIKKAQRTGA
Chain of UniProt Q80VM9 (whole entry, looked up): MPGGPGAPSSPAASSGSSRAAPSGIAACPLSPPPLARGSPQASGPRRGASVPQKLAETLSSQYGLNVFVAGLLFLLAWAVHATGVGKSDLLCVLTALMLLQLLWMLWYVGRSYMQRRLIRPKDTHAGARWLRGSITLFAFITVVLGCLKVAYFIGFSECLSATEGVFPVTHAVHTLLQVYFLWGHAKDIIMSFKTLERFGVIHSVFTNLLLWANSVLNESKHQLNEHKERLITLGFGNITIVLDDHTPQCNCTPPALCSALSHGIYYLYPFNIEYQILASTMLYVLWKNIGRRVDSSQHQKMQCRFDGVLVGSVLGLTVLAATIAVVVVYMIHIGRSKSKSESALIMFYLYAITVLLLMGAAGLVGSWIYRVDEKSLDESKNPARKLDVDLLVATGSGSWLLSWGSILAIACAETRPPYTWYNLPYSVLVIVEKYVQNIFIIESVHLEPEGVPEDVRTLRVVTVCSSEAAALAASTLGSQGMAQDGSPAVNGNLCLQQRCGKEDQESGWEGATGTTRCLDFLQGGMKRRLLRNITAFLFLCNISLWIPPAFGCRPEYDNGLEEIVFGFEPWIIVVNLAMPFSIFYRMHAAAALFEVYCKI
Chain of UniProt P51575 (whole entry, unmodified, looked up): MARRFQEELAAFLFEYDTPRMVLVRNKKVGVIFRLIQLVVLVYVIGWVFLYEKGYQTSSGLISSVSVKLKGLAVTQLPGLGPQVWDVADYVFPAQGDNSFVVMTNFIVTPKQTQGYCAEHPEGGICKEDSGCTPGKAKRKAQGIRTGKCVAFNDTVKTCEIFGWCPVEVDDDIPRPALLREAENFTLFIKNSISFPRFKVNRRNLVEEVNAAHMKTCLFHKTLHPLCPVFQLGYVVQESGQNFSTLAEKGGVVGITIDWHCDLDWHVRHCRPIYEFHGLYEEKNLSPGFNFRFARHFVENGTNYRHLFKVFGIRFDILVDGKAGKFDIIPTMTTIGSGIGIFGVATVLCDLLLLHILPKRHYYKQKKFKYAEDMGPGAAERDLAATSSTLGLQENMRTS
Chain of UniProt Q9NZQ7 (whole entry, looked up): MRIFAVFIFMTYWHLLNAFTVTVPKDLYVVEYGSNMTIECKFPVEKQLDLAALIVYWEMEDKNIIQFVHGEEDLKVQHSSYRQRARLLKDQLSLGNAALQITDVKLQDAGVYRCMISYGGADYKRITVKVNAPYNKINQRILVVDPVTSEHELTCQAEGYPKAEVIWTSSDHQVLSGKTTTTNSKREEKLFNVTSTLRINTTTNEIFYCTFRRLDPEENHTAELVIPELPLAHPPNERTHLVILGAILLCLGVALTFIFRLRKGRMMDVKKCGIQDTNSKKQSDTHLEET

SMILES	target	assay	test system	conditions	scale	quantity	result
Nc1ncnc2c1ncn2[C@@H]1O[C@H](COP(=O)(O)CP(=O)(O)OP(=O)(O)O)[C@@H](O)[C@H]1O	P2X purinoceptor 1 (P2RX1, Homo sapiens, UniProt P51575, D170A)	saturation binding	HEK293	130 nM	–	specific binding	574 CCPM and 371 CCPM and 452 CCPM
CC(C)c1noc2ncc(C(=O)c3ccccc3O)cc12	Otop1 (Mus musculus, UniProt Q80VM9)	alkali-evoked current, whole-cell patch-clamp	–	10 µM, pH 8.5	–	normalized current I2/I1	2.67 and 2.85 and 1.6
NCCCS(=O)(=O)O	SLC6A6 (Homo sapiens, UniProt P31641, G62A)	binding, microscale thermophoresis	–	488 nM, room temperature, with: 50 nM labelled protein	higher = more binding	normalised MST signal	0.024
COc1cc(-c2cncc3c2CN(C)Cc2cc(N4CCNCC4)ccc2-3)cc(OC)c1OC	FGFR1	kinase activity	–	1 µM, human enzyme, with: ATP 10 µM	relative to: DMSO control	remaining activity	87%
Nc1ncnc2c1ncn2[C@@H]1O[C@H](CO[P@](=O)(O)O[P@](=O)(O)O[P@@](=O)(O)S)[C@@H](O)[C@H]1O	GUK1 (Homo sapiens, UniProt Q16774)	ITC	–	molar ratio 2.83	–	ΔH	-0.293 kcal/mol
CN(C)C(=O)C(CCN1CCC(O)(c2ccc(Cl)cc2)CC1)(c1ccccc1)c1ccccc1	Calcium-activated potassium channel subunit alpha-1, with LRRC26 γ1 subunit (KCNMA1, Homo sapiens, UniProt Q12791)	BK channel conductance, inside-out patch clamp	–	BKα/γ1, Vm -20 mV, nominally Ca2+-free	–	Hill coefficient	1.33 ± 0.75
C[C@@H](O)[C@H](NC(=O)[C@H](Cc1ccc(O)cc1)NC(=O)[C@H](Cc1ccc(O)cc1)NC(=O)[C@H](CO)NC(=O)[C@H](CCCNC(=N)N)NC(=O)[C@H](Cc1c[nH]cn1)NC(=O)[C@@H](N)Cc1c[nH]c2ccccc12)C(=O)N[C@@H](Cc1c[nH]c2ccccc12)C(=O)N[C@@H](CC(N)=O)C(=O)NCCCC[C@H](NC(=O)[C@H](CC(N)=O)NC(=O)[C@H](Cc1c[nH]c2ccccc12)NC(=O)[C@@H](NC(=O)[C@H](Cc1ccc(O)cc1)NC(=O)[C@H](Cc1ccc(O)cc1)NC(=O)[C@H](CO)NC(=O)[C@H](CCCNC(=N)N)NC(=O)[C@H](Cc1c[nH]cn1)NC(=O)[C@@H](N)Cc1c[nH]c2ccccc12)[C@@H](C)O)C(=O)NCCCC[C@H](NC(=O)[C@H](CCCCNC(=O)[C@H](CC(N)=O)NC(=O)[C@H](Cc1c[nH]c2ccccc12)NC(=O)[C@@H](NC(=O)[C@H](Cc1ccc(O)cc1)NC(=O)[C@H](Cc1ccc(O)cc1)NC(=O)[C@H](CO)NC(=O)[C@H](CCCNC(=N)N)NC(=O)[C@H](Cc1c[nH]cn1)NC(=O)[C@@H](N)Cc1c[nH]c2ccccc12)[C@@H](C)O)NC(=O)[C@H](CC(N)=O)NC(=O)[C@H](Cc1c[nH]c2ccccc12)NC(=O)[C@@H](NC(=O)[C@H](Cc1ccc(O)cc1)NC(=O)[C@H](Cc1ccc(O)cc1)NC(=O)[C@H](CO)NC(=O)[C@H](CCCNC(=N)N)NC(=O)[C@H](Cc1c[nH]cn1)NC(=O)[C@@H](N)Cc1c[nH]c2ccccc12)[C@@H](C)O)C(=O)N[C@@H](CCCCN)C(=O)N[C@@H](CCCCN)C(=O)N[C@@H](CCCCN)C(N)=O	Programmed cell death 1 ligand 1, with PD-1 (CD274, Homo sapiens, UniProt Q9NZQ7)	PD-1 binding, inhibitor, competitive ELISA	–	2.5 µM	relative to: PBS over 2% BSA	fold reduction of blocking	1 fold
C=CC(=O)N1CCC(COCC(=O)N2CCN(c3nc(-c4cnc(N)nc4C(F)F)nc(N4CCOC[C@@H]4C)n3)CC2)CC1	NEK1 (Homo sapiens, UniProt Q96PY6)	KINOMEscan	–	1 µM	–	remaining binding	90%
CC(C)c1cccc2c(-c3ccccc3)cc(/C=C/c3ccc(C(=O)O)cc3)nc12	RARB (Homo sapiens, UniProt P10826)	reporter gene, antagonist	–	up to 3300 nM, with: ATRA 4 nM (EC80)	–	IC50	inactive
Nc1ccn([C@H]2C[C@H](O)[C@@H](COP(=O)(O)OP(=O)(O)OP(=O)(O)O)O2)c(=O)n1	RNA-directed RNA polymerase L (Human respiratory syncytial virus A, UniProt P28887)	nucleotide incorporation, substrate	–	–	–	Vmax	0.85 fraction per time
O=C(O)C1=CCNCC1	BEST2	whole-cell patch clamp	HEK293 transiently expressing channel	concentration not given, membrane potential 20 mV	–	current density	40 pA/pF and 8.03 pA/pF and 37.9 pA/pF and 82.4 pA/pF and 51.2 pA/pF
COc1ccc(F)cc1C(=O)NCc1ccc(-c2nn([C@@H](C)C(F)(F)F)c(N)c2C(N)=O)cc1	FGFR1	kinase activity, inhibitor, HotSpot radiometric	–	1000 nM, with: ATP at Km	–	remaining activity	93.8 ± 2.1%
CC1(C)C(/C=C/C=C2/N(CCCc3ccccc3)c3ccc(Cl)cc3C2(C)C)=[N+](CCCc2ccccc2)c2ccc(Cl)cc21.[Br-]	PRMT6 (Homo sapiens, UniProt Q96LA8)	inhibitor, filter binding	–	with: R4 peptide substrate	–	Hill coefficient	4.96
Cc1cccc(N2CC(C(=O)O)CC2=O)c1 (centres unmarked)	DNA (cytosine-5)-methyltransferase 3A, PWWP domain (DNMT3A, Homo sapiens, UniProt Q9Y6K1)	binding, affinity selection mass spectrometry	–	–	relative to: other proteins in batch	fold enrichment	1.11
CC[S+]([O-])c1nc(-c2ccccc2)cc(C(F)(F)F)n1 (centres unmarked)	KPNB1 (Homo sapiens, UniProt Q14974)	thermal shift	–	30 µM, 2 h	–	Tm2	52.3 °C
CC[C@@H](C)[C@@H](NC(=O)[C@@H](Cc1ccc(O)cc1)NC(=O)[C@H]1CCCN1C(=O)[C@@H](CCCNC(=N)N)NC(=O)[C@H](N)Cc1c[nH]cn1)C(=O)N[C@H](C)C(=O)N[C@H](Cc1c[nH]cn1)C(=O)N[C@H](CCCNC(=N)N)C(=O)N[C@@H](C(=O)N[C@H](Cc1ccc(O)cc1)C(=O)N[C@H](CO)C(=O)N[C@H](Cc1ccccc1)C(N)=O)C(C)C	Transferrin receptor protein 1 (Tfrc, Mus musculus, UniProt Q62351)	flow cytometry	MC-38	48 h, unit not given	relative to: 0 h	surface TFRC expression	0.491
c1ccc(CCCCCOCCc2ccc3c(c2)OCO3)cc1	ATP2A2 (Sus scrofa, UniProt P11607)	ATPase Vmax increase, activator	pig microsomes	0.1 to 50 µM	relative to: vehicle	Emax	~40%
c1ccc(-c2n[nH]cc2-c2ccnc3ccccc23)nc1	Mitogen-activated protein kinase MKC1 (MKC1, Candida albicans, UniProt P43068)	kinase binding, competitor, MIB/MS competition, refers to: MKC1	Candida albicans cell lysate	100 nM	relative to: DMSO	log2 fold change	1.48
CC1(C)O[C@@H]2[C@@H](CO[C@@]3(COS(N)(=O)=O)OC(C)(C)O[C@@H]23)O1	CA4 (Homo sapiens, UniProt P22748)	ITC	–	concentration not given, 25 °C	–	intrinsic binding TΔS	24.3 kJ/mol
Nc1ccc(C(=O)O)cc1	BEST2	whole-cell patch clamp	HEK293 transiently expressing channel	concentration not given, membrane potential -60 mV	–	current density	-46.7 pA/pF and -139 pA/pF and -190 pA/pF and -169 pA/pF and -97.3 pA/pF and -219 pA/pF
O=c1nc(SCc2cc(F)cc(C(F)(F)F)c2)nc(SCc2ccc3ncsc3c2)[nH]1	TOP2A	decatenation	–	31.25 µM, replicate 1	–	decatenated DNA	69.2%

SMILES	target	assay	test system	conditions	scale	quantity	result
Cc1ccc(NC(=O)/C=C/c2cccs2)cc1	Chrna7 (Rattus norvegicus, UniProt Q05941)	ion current, antagonist	–	holding potential -80 mV, with: acetylcholine 30 µM	–	IC50	inactive
Nc1nc2c(ncn2[C@@H]2O[C@H](COP(=O)(O)O)[C@@H](O)[C@H]2O)c(=O)[nH]1	GUK1 (Homo sapiens, UniProt Q16774, Y53A)	enzyme activity, NADH-coupled	–	2000 µM	–	reaction rate	7.78 s⁻¹ and 7.94 s⁻¹ and 8.51 s⁻¹
Cl.Cl.O=S(=O)(NCCNC/C=C/c1ccc(Br)cc1)c1cccc2cnccc12	PKN1 (Homo sapiens, UniProt Q16512)	inhibitor	–	–	–	Hill slope	-0.839
O=C(O)c1ccc([N+](=O)[O-])cc1	BEST2	whole-cell patch clamp	HEK293 transiently expressing channel	concentration not given, membrane potential -60 mV	–	current density	-66.5 pA/pF and -219 pA/pF and -159 pA/pF and -161 pA/pF and -180 pA/pF
COc1cc(Nc2nccc(-c3cnn4nc(OC)ccc34)n2)cc(C(F)(F)F)c1	HIPK1 (Homo sapiens, UniProt Q86Z02)	NanoBRET target engagement	live cells	concentration not given, no binding	–	binding	no binding
CC(C)c1ccc(CSc2nc(SCc3ccc4sccc4c3)[nH]c(=O)n2)cc1	TOP2A	decatenation	–	7.8 µM	–	mean decatenated DNA	100%
CC[C@@H]1[C@H](F)C(=O)N[C@@H]1COc1nccc2cc(C(N)=O)c(OC)cc12	PHKG2 (Homo sapiens, UniProt P15735)	ATP-site probe binding, ActivX profiling	THP-1 cell lysate	0.04 mM, Lys1 site	–	inhibition	3.7%
O=c1nc(SCc2ccc(C(F)(F)F)cc2)nc(SCc2ccc3sccc3c2)[nH]1	TOP2A	decatenation	–	31.25 µM, replicate 2	–	decatenated DNA	0%
COC(=O)C1CCN(C(=O)c2ccc(NCc3cnc4nc(N)nc(N)c4n3)cn2)CC1	Pteridine reductase 1 (Leishmania major, UniProt Q01782)	–	–	hDHFR weight 10	relative to: LmPTR1, LmDHFR over hDHFR, 1.0 selective, 0.0 non-selective	partition index	0.84
Cc1ccc2c(c1)sc(-c1ccc(N(C)C)cc1)[n+]2C	T1, G-quadruplex RNA (Homo sapiens)	ThT fluorescence	–	potassium phosphate 100 mM, reduced with Li+	–	binding	binds
N[C@@H](Cc1ccccc1)C(=O)O	ADRB2 (Homo sapiens, UniProt P07550)	–	HEK293 expressing β2AR	500 µM	–	cAMP level	22.2 pmol/mg protein and 23.6 pmol/mg protein and 19.4 pmol/mg protein and 23.8 pmol/mg protein and 25.1 pmol/mg protein
CC[C@H](NCc1ccc(-c2cccc(-c3cccc(/C=C/C(=O)c4ccc(OC)cc4)c3)c2C)nc1OC)C(N)=O	CD274 (Homo sapiens, UniProt Q9NZQ7)	degrader, western blot	HL-60	1 µM	–	degradation	< 5%
O=c1nc(SCc2cc(F)cc(C(F)(F)F)c2)nc(SCc2ccc3ccccc3n2)[nH]1	TOP2A	decatenation	–	15.6 µM, replicate 1	–	decatenated DNA	100%
COCCC(=O)N1CCC(Oc2ccccc2)C1 (centres unmarked)	Histone-lysine N-methyltransferase SETDB1, triple tudor domain (SETDB1, Homo sapiens, UniProt Q15047)	binding, affinity selection mass spectrometry	–	–	relative to: other proteins in batch	fold enrichment	0.75
O=c1cc(-c2ccc(OS(=O)(=O)[O-])cc2)oc2cc(OS(=O)(=O)[O-])cc(OCc3cccc(COc4cc(OS(=O)(=O)[O-])cc5oc(-c6ccc(OS(=O)(=O)[O-])cc6)cc(=O)c45)n3)c12.[Na+].[Na+].[Na+].[Na+]	Neutrophil elastase (ELANE, Homo sapiens, UniProt P08246)	–	cystic fibrosis patient sputum	low salt, with: DNase	–	concentration for HNE decrease	> 250 µM
CC1CNCCN1S(=O)(=O)c1cccc2cnccc12 (centres unmarked)	Sulfonylurea receptor 1, Kir6.2 (Homo sapiens, UniProt Q09428+Q14654)	inside-out patch clamp	HEK293	100 µM, 10 min, no MgADP	–	decrease in channel activity	22 ± 7%
CCC(C)(NCCc1ccc(C(F)(F)F)cc1C(F)(F)F)c1cccc(NC2=CC(=O)N(C3CCC(=O)NC3=O)C2=O)c1 (centres unmarked)	Cereblon/Ikaros (Homo sapiens, UniProt Q13422+Q96SW2)	protein degradation, degrader, HiBiT luminescence	Jurkat	–	–	Dmax	71%
COc1ccc(/C=C/c2ccc(/C=C/c3ccc(OC)c(C(=O)O)c3)c([125I])c2)cc1C(=O)O	human tau 2N4R filaments	binding, filter trap	–	–	relative to: synthetic 2N4R filaments over authentic PHF-tau	Bmax ratio	23 ± 2 fold
O=c1nc(SCc2cc(F)cc(C(F)(F)F)c2)nc(SCc2nc3ccccc3[nH]2)[nH]1	TOP2A	decatenation	–	15.6 µM, replicate 1	–	decatenated DNA	96.9%
Nc1nc2c(ncn2[C@@H]2O[C@@H]3COP(=O)(O)O[C@H]3[C@H]2O)c(=O)[nH]1	Cone cGMP-gated channel (Morone saxatilis, UniProt Q3I0N1+Q3I0N2)	channel current, agonist, suction electrode	cone outer segments	with: 0.2 µM Ca2+	–	Hill coefficient	2.47 ± 0.41

Excerpt of the above:
SMILES	target	assay	test system	conditions	scale	quantity	result
CC1(C)C(/C=C/C=C2/N(CCCc3ccccc3)c3ccc(Cl)cc3C2(C)C)=[N+](CCCc2ccccc2)c2ccc(Cl)cc21.[Br-]	PRMT6 (Homo sapiens, UniProt Q96LA8)	inhibitor, filter binding	–	with: R4 peptide substrate	–	Hill coefficient	4.96
Cc1cccc(N2CC(C(=O)O)CC2=O)c1 (centres unmarked)	DNA (cytosine-5)-methyltransferase 3A, PWWP domain (DNMT3A, Homo sapiens, UniProt Q9Y6K1)	binding, affinity selection mass spectrometry	–	–	relative to: other proteins in batch	fold enrichment	1.11
CC[S+]([O-])c1nc(-c2ccccc2)cc(C(F)(F)F)n1 (centres unmarked)	KPNB1 (Homo sapiens, UniProt Q14974)	thermal shift	–	30 µM, 2 h	–	Tm2	52.3 °C
CC[C@@H](C)[C@@H](NC(=O)[C@@H](Cc1ccc(O)cc1)NC(=O)[C@H]1CCCN1C(=O)[C@@H](CCCNC(=N)N)NC(=O)[C@H](N)Cc1c[nH]cn1)C(=O)N[C@H](C)C(=O)N[C@H](Cc1c[nH]cn1)C(=O)N[C@H](CCCNC(=N)N)C(=O)N[C@@H](C(=O)N[C@H](Cc1ccc(O)cc1)C(=O)N[C@H](CO)C(=O)N[C@H](Cc1ccccc1)C(N)=O)C(C)C	Transferrin receptor protein 1 (Tfrc, Mus musculus, UniProt Q62351)	flow cytometry	MC-38	48 h, unit not given	relative to: 0 h	surface TFRC expression	0.491
